# Experimental data of several laboratories.
# Each line is one published result; not all experiments were run side by side. “And” joins repeats or separate records; there may be more than shown. ± gives the spread as reported.
Substance,tested on,assay,test system,setting,how to read,endpoint,value
EFTEDELPSDSCVFGGQKLTL,IKK from HEK-293T cells,Western blot,peptide,"500 µM, 30 min, 30 °C, with: 6xHis-IκBα wt 1 µM",relative to: no-peptide control,IκBα phosphorylation,66% and 37% and 62%
DNNHCSWLYGYWEWTLWGED,"UltraID biotin ligase, C-terminal fusion","biotinylation activity, inhibitor, streptavidin/HA fluorescence ratio","peptide, HEK-293T","concentration not given, 30 min, with: biotin 50 µM",relative to: control,inhibition,> 75%
HVLVMSATRR,,,"peptide, C57BL/6J mice, male, serum","subcutaneous osmotic pump, 3 mg/kg/day peptide basis, 8 weeks",,total cholesterol,101 mg/dL and 100 mg/dL
KYHSNVKEL,Mamu-B*08301 MHC class I,peptide binding,"peptide, Chinese rhesus macaque",,,IC50,> 20 µM
colistin,Aspergillus fumigatus,,solid minimal medium,"20 µM, 4 d",relative to: untreated control,radial growth ratio,0.949 and 0.929 and 0.919
FAAPQFSLW,Mamu-B*08301 MHC class I,peptide binding,"peptide, Chinese rhesus macaque",,,IC50,> 20 µM
I-BET151,BRD4 bromodomains BRD2 D1 and D2,SDS-PAGE,,,,photocrosslinking,no effect
PPEDPAVDL,Mamu-A1*02601 MHC class I,peptide binding,"peptide, Chinese rhesus macaque",,,IC50,> 20 µM
pertussis toxin,,immunostaining,"humanized mouse, SAH model, middle cerebral artery",dose not given,,p-PKC level,17.7 MFI
RAFVTI,mouse H2-Dd/human β2m,"thermal stability rescue, DSF",peptide,"20-fold molar excess, pH 7.2, peptide-deficient, UV-irradiated",,Tm,35.8 ± 0.5 °C
somatostatin-14,human somatostatin receptor 2,cAMP level,HCT-116 expressing SSTR2,"30 min, 37 °C, with: 10 µM forskolin",,IC50,0.001 ± 0.0001 µM
AAATQEMTLVDTPNAK,MsrA and MsrB,LC-MS/MS,"peptide, actinonin-treated Escherichia coli proteome","10 min, pH 7.5, 37 °C, with: MsrA 0.54 µM, MsrB 2.02 µM",,fractional oxidation,0.518
CEMDGQCKRDLKCCMGMCGKSCVSPVKA,ERK (mouse),Western blot,"peptide, RAW264.7","concentration not given, 6 h pretreatment, with: LPS for 30 min",,p-ERK/ERK ratio,0.61 ± 0.07
heparin sodium,,,healthy Chinese adult volunteers,"continuous intravenous infusion, 8 IU/kg/h, 5 days",,subjects with decreased hemoglobin,0%
amyloid β-peptide (1–28),trypsin,"substrate, LC-MS",,"10 µM, 60 min, pH 7.4, 25 °C",,residual substrate,40.7 ± 4.2%
6'-sialyl-N-acetyllactosamine,HMW2 adhesin Haemophilus influenzae,glycan array,"Escherichia coli, DH5α expressing HMW2",concentration not given,relative to: empty vector,binding signal,27 fold
hexaarginine,PorA peptide pore,"peptide binding, planar bilayer single-channel recording",,"0.5 µM, pH 7.4, +5 mV, trans side, 150 mM KCl",,koff,1090 ± 100 s⁻¹
aspterric acid,Arabidopsis thaliana,,2-week-old plants,"foliar spray, 200 µg/mL, 20 days, postemergence",,aboveground fresh weight,393 mg
glucagon,,isotope dilution,"human, non-diabetic","intravenous infusion, 0.05 ng/kg/min, 100 to 120 min",,splanchnic extraction,25.8 ± 3.7%
nonaarginine,PorA peptide pore,"peptide binding, planar bilayer single-channel recording",,"0.5 µM, pH 7.4, -10 mV, cis side, 150 mM KCl",,koff,11.1 ± 1 s⁻¹
RGPGRAFVT,mouse H2-Dd S73C/human β2m,"thermal stability rescue, DSF",peptide,"20-fold molar excess, pH 7.2, peptide-deficient, with: TCEP 1 mM",,Tm,34.2 ± 0.2 °C
VPGFQALSE,Mamu-B*08301 MHC class I,peptide binding,"peptide, Chinese rhesus macaque",,,IC50,> 20 µM
GRAFVTI,mouse H2-Dd S73C/human β2m,"thermal stability rescue, DSF",peptide,"20-fold molar excess, pH 7.2, peptide-deficient, with: TCEP 1 mM",,Tm,36.3 ± 0.2 °C
KEVDSSSHM,Mamu-B*08301 MHC class I,peptide binding,"peptide, Chinese rhesus macaque",,,IC50,> 20 µM
orexin-B,non-responsive control sensor,"sensor fluorescence, fluorescence imaging",HEK293T,"10 µM, with: OXB 10 µM",relative to: baseline,maximal ΔF/F0,-48.7% and 6.48% and -9.88% and 5.11% and -2.09% and 0.803%
insulin human,,measured: GFPT1,"mouse, uninfected, brain","ip, dose not given, with: insulin",relative to: PBS-treated,mRNA fold change,1.1
YTSGPGIRY,Mamu-A1*02601 MHC class I,peptide binding,"peptide, Chinese rhesus macaque",,,IC50,> 20 µM
Polymyxin B,,,mouse,"intraperitoneal, 30 mg/kg single dose, day 4",,survival,0%

# Excerpt of the above:
Substance,tested on,assay,test system,setting,how to read,endpoint,value
colistin,Aspergillus fumigatus,,solid minimal medium,"20 µM, 4 d",relative to: untreated control,radial growth ratio,0.949 and 0.929 and 0.919
FAAPQFSLW,Mamu-B*08301 MHC class I,peptide binding,"peptide, Chinese rhesus macaque",,,IC50,> 20 µM
I-BET151,BRD4 bromodomains BRD2 D1 and D2,SDS-PAGE,,,,photocrosslinking,no effect
